Published values collected from several papers.
Each numbered part is a random draw from the data of one study; scales do not carry over between parts.

Series 1
Target: Interferon regulatory factor 3, full length, phosphomimetic (IRF3, Homo sapiens, UniProt Q14653, residues 1-427, S386D/S396D/S398D/S402D/T404D/S405D)
Method: protein-binding microarray
Molecule type: double-stranded DNA, one strand shown
Matrix: in vitro
Concentration: 2540 nM top
Setting: 60-bp whole probe
Together with: salmon DNA 0.4 mg/ml
Reference: random background probes
Direction: higher = stronger binding
Shared flanks, not repeated: GCCTAGCAC … GTCTTGATTCGCTTGACGCTGCTG
Construct (chain): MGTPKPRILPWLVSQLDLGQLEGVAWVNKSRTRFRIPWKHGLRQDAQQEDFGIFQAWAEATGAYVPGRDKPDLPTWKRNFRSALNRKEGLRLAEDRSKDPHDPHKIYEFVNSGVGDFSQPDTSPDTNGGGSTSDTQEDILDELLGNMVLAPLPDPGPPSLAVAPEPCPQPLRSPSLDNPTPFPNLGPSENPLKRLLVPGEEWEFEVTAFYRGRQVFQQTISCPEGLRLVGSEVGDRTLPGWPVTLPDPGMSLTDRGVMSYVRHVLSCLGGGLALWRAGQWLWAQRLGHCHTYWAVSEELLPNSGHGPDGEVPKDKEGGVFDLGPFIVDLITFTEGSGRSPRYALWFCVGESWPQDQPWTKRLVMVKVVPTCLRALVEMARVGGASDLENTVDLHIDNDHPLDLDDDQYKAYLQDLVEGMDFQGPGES
| Oligonucleotide | fitted relative affinity [z-score] |
| --- | --- |
| TCAGGACTGGGGTATCGGTTAGTGCTA | 0.12 |
| AGCAGTTTCTCAACCACTTTGTGCTAG | 2.17 |
| TTAGGACTGGGACTGGGCTAGTGCTAG | -1.07 |
| TCACATCTGTCATGTTTGACTGTGCTA | 0.513 |
| GACAGTTCCGGTTTCGGGACGTGCTAG | 6.5 |
| TGAGGTCTCCTTATCCTTTAGTGCTAG | 2.38 |

Series 2
Target: Histone acetyltransferase KAT6A, winged helix 2, GST fusion (KAT6A, Homo sapiens, UniProt Q92794, residues 85-181)
Method: protein binding microarray
Molecule type: double-stranded DNA, one strand shown
Matrix: in vitro
Concentration: not given
Setting: 8-mer, flanks averaged, mean of 2 arrays, mostly near background
Reference: not given
Direction: higher = stronger binding
Construct (chain): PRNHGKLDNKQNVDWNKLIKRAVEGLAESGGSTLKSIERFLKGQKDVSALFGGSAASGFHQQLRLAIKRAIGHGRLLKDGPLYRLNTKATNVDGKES
| Oligonucleotide | E-score |
| --- | --- |
| CTAGTCTC | -0.234 |
| TATCAAGA | -0.0542 |
| ACCAGCAT | -0.0859 |
| GCCTAGGA | -0.00125 |
| ACCCGAAG | 0.157 |
| CTCCCTGC | 0.0875 |

Series 3
Target: Max-binding protein MNT, bHLH-zipper, MAX partner unstated (MNT, Homo sapiens, UniProt Q99583, residues 220-300)
Method: protein-binding microarray
Molecule type: double-stranded DNA, one strand shown
Matrix: in vitro
Concentration: not given
Setting: k-mer, scored over probes, only values ≥0.25
Direction: higher = stronger binding
Residues (chain): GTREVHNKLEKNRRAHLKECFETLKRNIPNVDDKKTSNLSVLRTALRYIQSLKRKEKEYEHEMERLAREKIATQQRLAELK
| Oligonucleotide | E-score |
| --- | --- |
| CCCTCCAC | 0.263 |
| ACGTTTAT | 0.262 |
| CGTGGAAG | 0.358 |
| TGGCCACA | 0.346 |
| AGGCATGG | 0.316 |
| TCATGCGA | 0.252 |
| CGTGACCA | 0.389 |

Single results of other studies
| Molecule | target | assay | system | setting | how to read | measurement | result |
| --- | --- | --- | --- | --- | --- | --- | --- |
| PhoQ, residues 284 288 289 292 302 303 SCCLKL | PhoP, residues 12 14 15 18 19 LQHIR (Escherichia coli, UniProt P23836) | Sort-seq, measured: YFP reporter | E. coli | PhoQ-PhoP variant library, together with: 10 µM Mg2+ | reference: high Mg2+ state, higher = stronger signaling | fold induction | 10.6 |
